Experimental data from different studies.
Protocols differ between the studies behind these lines. ± marks the error that the study gave. In brackets after ≈: the same amount, converted by molar mass.
Organism: Escherichia coli

SMILES | test | system | conditions | scale | measurement | value
CCn1cc(/C=C/c2sc3ccccc3[n+]2CC)c2ccccc21 |  | 780 | 24 h |  | MBC | 25 ± 0.002 µg/mL
c1ccc(CN2CCOCCOCCN(CCCCCCCCN3CCOCCOCCN(CCCCCCCCN4CCOCCOCCN(Cc5ccccc5)CCOCCOCC4)CCOCCOCC3)CCOCCOCC2)cc1 | K+ selective electrode | tetracycline-resistant | 4 µM, 10 min | baseline: total | potassium release | 6%
COc1cc(OC)c2c(c1)C(=O)c1cc3oc(=O)cc(-c4ccccc4)c3c(O)c1C2=O |  | MTCC 739 | 100 µg/disc |  | inhibition zone diameter | 12 mm
Cc1cc([N+](=O)[O-])ccc1NC(=O)CSc1nc2ccccc2c(=O)n1-c1ccc(S(N)(=O)=O)cc1 | microbial killing | ATCC25 ATCC25922 | 24 h |  | MBC | 2.5 µg/mL (≈ 4.76 µM)
CCCCCCCCCCCCCCCCCC(=O)N[C@@H](CCCCN)C(=O)N[C@@H](CCCCN)C(=O)N[C@@H](CCCCN)C(=O)N[C@@H](CCCCN)C(=O)N[C@@H](CCCCN)C(N)=O | crystal violet | K12 | 32 µg/mL |  | biofilm inhibition | 39.5%
CCCCCCCCCC1CC2CCCC3CC(CCCCCCCCC)NC(=N1)N23 (stereo not shown) | bacterial growth | ATCC 35218 |  |  | IC50 | 6.33 µM
CO[C@H]1O[C@H](COC(c2ccccc2)(c2ccccc2)c2ccccc2)[C@@H](OS(=O)(=O)c2ccccc2)[C@H](OS(=O)(=O)c2ccccc2)[C@H]1OS(=O)(=O)c1ccccc1 |  |  | concentration not given |  | inhibition zone diameter | 12 ± 0.3 mm
CCOC(=O)C1=C(C)NC2=C(C(=O)CC(C)(C)C2)C1c1ccc(OCC(=O)NN=Cc2cccc([N+](=O)[O-])c2)cc1OCC(=O)NN=Cc1cccc([N+](=O)[O-])c1 (stereo not shown) |  | ATCC 25922 | concentration not given, 24 h, 37 °C |  | inhibition zone diameter | 2.3 ± 0.3 mm
Cc1ccc(S(=O)(=O)N(CCc2nnc(S)o2)c2ccccc2)cc1 | cup plate method |  | 100 µg/mL | baseline: cotrimoxazole | relative inhibition | 20.7%
C[C@]1(COC(=O)Cc2ccc(O)c(O)c2)[C@H](C(=O)O)N2C(=O)/C(=C/c3ccccn3)[C@H]2S1(=O)=O | broth microdilution | TG1 expressing DHA-1 | 16 µg/mL |  | MIC of ceftazidime | ≤ 0.06 µg/mL
CC(C)C[C@@H]1NC(=O)[C@H](CCCCN)NC(=O)CNC(=O)[C@H]2CCCN2C(=O)[C@H](CCCCN)NC(=O)[C@H](CC(C)C)NC(=O)[C@H](CCCCN)NC(=O)[C@H](CC(C)C)NC(=O)[C@H](CCCCN)NC(=O)C(N)CCC=CCCC(C(N)=O)NC(=O)[C@H](CCCCN)NC(=O)[C@H](CC(C)C)NC(=O)[C@H](CCCCN)NC1=O (stereo partly shown) | SYTOX green uptake | ATCC 25922 | 1× MIC, 1 h, pH 7, 37 °C | baseline: BTT1 | inner membrane permeabilization | ~80%
CC[C@H](C)[C@H](NC(=O)[C@H](CCCCN)NC(=O)[C@H](CC(N)=O)NC(=O)[C@H](Cc1c[nH]c2ccccc12)NC(=O)[C@H](Cc1ccccc1)NC(=O)[C@H](CCCCN)NC(=O)[C@H](CCCCNC(=N)N)NC(=O)[C@H](CC(C)C)NC(=O)[C@H](Cc1c[nH]c2ccccc12)NC(=O)[C@H](CCCCN)NC(=O)[C@H](CCCCNC(=N)N)NC(=O)[C@H](CC(C)C)NC(=O)CNC(C)=O)C(=O)N[C@@H](CCCCN)C(=O)N[C@@H](CCCCNC(=N)N)C(N)=O |  | ATCC 25922 | 12 h, together with: plasma pretreatment | baseline: MIC without plasma pretreatment | MIC fold increase | 2 fold
Cn1c(SCCN2CCCCC2)nnc1C12CC3CC(CC(C3)C1)C2 |  | IFO 3301 | 200 µg/disc, 24 h, 37 °C |  | inhibition zone diameter | < 10 mm
